Measurements of several laboratories.
A part holds a random share of what one study measured. Positions count from the first letter of the parent shown.

Block 1
Target: ABI1, truncated, D143A, DHFR fusion (Arabidopsis thaliana)
Technique: DHFR PCA, deep sequencing
Medium: yeast
Setting: methotrexate growth selection, single substitutions
Added: (+)-ABA 58 µM
Relative to: wild-type fitted maximum
Reading: higher = stronger binding
Measurement: relative binding score
Starting sequence: PYL1, truncated, DHFR fusion (Arabidopsis thaliana); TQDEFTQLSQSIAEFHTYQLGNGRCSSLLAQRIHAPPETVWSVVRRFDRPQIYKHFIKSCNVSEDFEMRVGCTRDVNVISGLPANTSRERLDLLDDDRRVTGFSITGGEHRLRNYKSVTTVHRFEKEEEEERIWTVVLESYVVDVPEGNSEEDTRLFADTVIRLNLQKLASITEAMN; partner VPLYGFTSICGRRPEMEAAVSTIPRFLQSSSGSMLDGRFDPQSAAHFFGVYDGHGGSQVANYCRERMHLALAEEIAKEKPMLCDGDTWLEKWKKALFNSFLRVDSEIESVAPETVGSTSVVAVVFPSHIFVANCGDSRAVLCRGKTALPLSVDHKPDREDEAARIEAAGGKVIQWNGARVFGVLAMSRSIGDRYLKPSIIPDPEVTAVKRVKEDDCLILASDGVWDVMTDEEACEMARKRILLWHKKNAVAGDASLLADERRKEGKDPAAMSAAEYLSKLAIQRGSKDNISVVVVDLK
A175S: 82.9%
W134E: 99%
L93W: 69.6%
P37L: 62.3%
I79Q: 90.6%
D96F: 18.4%
I52Q: 85.9%
E14M: 70.2%

Block 2
Target: Histone acetyltransferase KAT6A, winged helix 1, GST fusion (KAT6A, Homo sapiens, UniProt Q92794, residues 1-85)
Technique: protein binding microarray
Molecule type: double-stranded DNA, one strand shown
Medium: in vitro
Concentration: not given
Setting: 8-mer, flanks averaged, mean of 2 arrays, mostly near background
Relative to: not given
Reading: higher = stronger binding
Measurement: E-score
Construct (chain): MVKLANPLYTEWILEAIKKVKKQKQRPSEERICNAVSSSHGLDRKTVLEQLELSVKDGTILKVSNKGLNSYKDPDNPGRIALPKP
CTAAGTCA: -0.149
GCCGTAAC: 0.429
CCGAGGCG: 0.274
CAATGGAA: 0.00632
ATCATTTC: -0.264
AGTTATCG: -0.00329
AAACTTTA: -0.0778
GATGTTGC: 0.0423
CGTTGTAC: -0.0258

Block 3
Target: RNA binding protein fox-1 homolog 2, RRM domain, GST-SBP tag (RBFOX2, Homo sapiens, UniProt O43251-10, residues 100-194)
Technique: RNA Bind-n-Seq
Molecule type: RNA
Medium: in vitro
Concentration: 365 nM
Setting: natural RNA segment, single round, ends assumed
Relative to: no-protein control
Reading: higher = stronger binding
Measurement: RBNS enrichment (R)
All sequences stand within: GGGAGUUCUACAGUCCGACGAUC … UGGAAUUCUCGGGUGCCAA
Construct (chain): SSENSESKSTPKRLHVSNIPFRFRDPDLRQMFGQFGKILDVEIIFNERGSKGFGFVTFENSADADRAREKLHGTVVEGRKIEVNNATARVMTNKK
CAGAUGGUAGGAGCUGGAGCAAGGUGGUCCACAGGGGAAUGCCUCUCCUGUGCCCAUUUUAUAAUACCUCGCCAAGCUUGGGUCUUUAGAUGAGCAAGAUUAUGGUUAGU: 0.392
UUUGUUACUUCGUGUAUUUGAGUUACUUUCUAUUUUCCACUUUGUAUGUCAUCCACUGCUUGGGGAAUUUUCCUCAGGUACCUACACACCCUGAUAUUUGAAACCAAAAC: 0.647
UUGAUGGUGUCCAUACCGACUAUAUUGUUCCCAGCUUGUUCUGAGUAGCAUGUCAGCUGCUGAUGAAGUAGAAGGCCUGGGUGGCCUGGAAAAAGGACACAGAAUGGGGC: 8.41
UCAUGUGACCUGUUUGGCCCCUAACUGUCCCUUCUUUUCACUGCUUCUGUCUGACACCAUCUCCCUUUCGGCCUGAAGGUUUCAGAGAGGGUGCUCUGGGCUGGAGGGAG: 0.594
CAUUUACCAUGAAUUUACUUCCUCCCAAGAGUUUGGACUGCCCGUCAGAUUGUUGCUGCACAUAGUUGCCUUUGUAUCUCUGUAUGAAAUAAAAGGUCAUUUGUUCAUGU: 0.326
CCUGUUCCCCAGAGUUGUCCCUGUAGUGUCUAGGUUUAUUCUAAUGGUAAAAGUAACUUACUUAAAAAACAUAUGUACACAUAUGUAUGCAAGUAUGUAUAUAUGUGUAU: 1.09
AAGGCUACCUUGAAAUCCAGAAAAUCCAAUCCUAAGUCAACUGCUUGGUGAAGGAGACAAGCAGUCAGCGGAGAAUCUGAUGGUGGAAAAGCUACAGCGACAGACGGCCA: 0.451
AAGUUGAAGAGUACUUUUGAUCAGUUUAUGAUUCAGUUUAUGAUUUUAGUUUUUGCCUUCAUGUUAUACAUUUAUGAUUUGAAACUGUACAUCUGUUACCUUGAAAAACA: 0.766
CGAUGCCUUGGGCAGGGUUUCCCCCUUUUCAGAAUACAGGGUGUAAAGUCCAGCCUAUUACAAACAAACAAACAAACAAACAAACAAAGGACCUCCAUUUGGAGAAUUGC: 0.44
UAGAACCUCUGGUCUUCCUUUCUCUGUCCCGAGUACUGAAAUUGCAGCAGACACCUUCAUGCCUUGCCCAGGCUUCUAGUCUUUUCCUCCUUCUGGUAAUGACUACUUCU: 0.902
CUGGAAAAUGUGAAAGCAUAUUUAGAUUUUAUAUACUAUCUGAAAUGUGAUUUGUUAAGAUUCUUAAAUUUGGGCCUCUUAGAAUAAUUUUGAAUGAGAUCUACCGACUC: 0.394
GCCUCAAACUGCCAUUCACAGUGGUACUGUGAUCCAGACCCCUGAGUGCCACAGGAAGGGUAGGCCCUGGGACAGUGGCUUCAAGUGUCUUUGAGCAAGUAGGCAAGAUA: 0.32

Mixed results
MDASRQLMLNEEQ  growth enrichment score (Saccharomyces cerevisiae; binding, competitive growth deep sequencing; peptide, cyclin E1-Cln2 fusion strain; concentration not given, Cln2 score subtracted; direction not given): 0.0878
PhoQ, residues 284 288 289 292 302 303 SLANIV  fold induction (PhoP, residues 12 14 15 18 19 SMASL (Escherichia coli, UniProt P23836); Sort-seq, refers to: YFP reporter; E. coli; PhoQ-PhoP variant library, added: 10 µM Mg2+; relative to: high Mg2+ state, higher = stronger signaling): 7.93
SSAQRRLEIPSGG  growth enrichment score (Saccharomyces cerevisiae; binding, competitive growth deep sequencing; peptide, cyclin D3-Cln2 fusion strain; concentration not given, RxL motif peptides; direction not given): -0.0381

Some of these lines once more (block 2):
ATCATTTC: -0.264
AGTTATCG: -0.00329
AAACTTTA: -0.0778
CGTTGTAC: -0.0258
GCCGTAAC: 0.429
